Measured values of several laboratories.
Parts stem from different laboratories: compare values within a part only. Substitutions count along the parent as printed.

Set 1
Target: Fragile X messenger ribonucleoprotein 1, C-terminal low-complexity region (Fmr1, Mus musculus, UniProt P35922)
Technique: RNA Bind-n-Seq
Form: RNA
Matrix: in vitro
Tested at: 200 nM
Notes: whole 134-nt RNA, ends assumed
Together with: 150 mM LiCl
Baseline: input library
Direction: higher = stronger binding
All molecules: 7-deaza-guanosine replaces G
Sequence	log2 enrichment
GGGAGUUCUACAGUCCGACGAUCAAGUCCUGUGCUACACAUCGUAUGUACCGAAUCGGGCCCCGGCCCCGGCCCCGGGGAAAGUAUUAUGUUACGCCGUUCGGAUCUGCACUUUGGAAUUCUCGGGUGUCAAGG	-1.39
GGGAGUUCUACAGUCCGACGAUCAAGUCCUGUGCUACACAUCGUAUGUACCGAAUCGGGGAGGGGAAAGGGGUUUGGGGAAAGUAUUAUGUUACGCCGUUCGGAUCUGCACUUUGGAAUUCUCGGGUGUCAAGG	-1.28
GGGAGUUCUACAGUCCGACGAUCGCAGGAAGUAAAAACAAAUGGAAAUGCUUCGGAUAGUGGCAGGGGUGGGGGUUGCUCAGGAAAGGGUGGGAUGGGAGUGGGUAAAGAGUUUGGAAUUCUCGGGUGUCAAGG	1.49
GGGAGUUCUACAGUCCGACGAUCAGUCCUGUGCUACACAUCGUAUGUACCGAAUCGGUUUGGAAAAAAAGGUUUUUUUGGAAAGUAUUAUGUUACGCCGUUCGGAUCUGCACUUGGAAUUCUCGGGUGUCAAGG	-3.09
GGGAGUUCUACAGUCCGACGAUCCCUCAAGUCCUGUGCUACACAUCGUAUGUACCGAAUCGGAGGAAAAAGGUGGAAAGUAUUAUGUUACGCCGUUCGGAUCUGCACUUCCAGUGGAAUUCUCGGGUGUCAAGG	-0.663
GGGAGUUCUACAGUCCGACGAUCAGUCCUGUGCUACACAUCGUAUGUACCGAAUCGGAAAAAAAGGAAAGGAAAAAAAGGAAAGUAUUAUGUUACGCCGUUCGGAUCUGCACUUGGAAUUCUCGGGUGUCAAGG	-1.65
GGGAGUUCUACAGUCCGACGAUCCUCAAGUCCUGUGCUACACAUCGUAUGUACCGAAUCGGAGGAAAGGAAAAAGGAAAGUAUUAUGUUACGCCGUUCGGAUCUGCACUUCCAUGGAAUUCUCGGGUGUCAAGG	-1.02
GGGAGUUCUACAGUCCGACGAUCCAAGUCCUGUGCUACACAUCGUAUGUACCGAAUCGGGCCCGGGCCCGGGCCCGGGAAAGUAUUAUGUUACGCCGUUCGGAUCUGCACUUCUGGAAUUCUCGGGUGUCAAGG	-2.52
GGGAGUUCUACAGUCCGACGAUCUAACUUUAGAGGAGAAUCUGAUGGAUAUGGCAGUGGACGUGGAUUUGGGGAUGGCUAUAAUGGGUAUGGAGGAGGACCUGGAGGUGGCAAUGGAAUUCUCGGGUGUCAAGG	0.455
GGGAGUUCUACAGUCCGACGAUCUGCCUCUGCGGCUAGCUGAUUUUGGGGUACUUCAUAGGAACGAGCUGUCUGGAGCACUCACAGGACUCACCCGGGUACGAAGAUUCCAACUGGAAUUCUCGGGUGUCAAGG	-2.58
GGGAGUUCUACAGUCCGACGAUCUAUCUUAUCUACACAUGGGGGACUGAAGAGUUCGAGAGAUCCAAGAGGAAGAAUCCAGCUGCCUAUGAAAAUGACAAAUGAGCAACGCAUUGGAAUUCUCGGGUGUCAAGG	-0.293

Set 2
Target: Histone acetyltransferase KAT6A, both winged helices, GST fusion (KAT6A, Homo sapiens, UniProt Q92794, residues 1-181)
Technique: protein binding microarray
Form: double-stranded DNA, one strand shown
Matrix: in vitro
Tested at: not given
Notes: 8-mer, flanks averaged, mean of 2 arrays, mostly near background
Baseline: not given
Direction: higher = stronger binding
Residues (chain): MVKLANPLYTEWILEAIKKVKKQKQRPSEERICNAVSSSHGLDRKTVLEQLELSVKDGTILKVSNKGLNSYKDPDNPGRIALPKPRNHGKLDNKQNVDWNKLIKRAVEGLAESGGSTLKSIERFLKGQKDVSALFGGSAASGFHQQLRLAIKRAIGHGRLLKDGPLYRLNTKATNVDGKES
Sequence	E-score
CGTTTGCA	0.0554
GAATCCCA	-0.289
ACCGAGTG	0.0196
GGTTACGA	0.115
CCGAGAAA	0.139
CACGGCGC	0.342
AGCTACTG	-0.229
GTCTTACA	-0.0154
GCCTCAGA	0.109
CCCGATCA	0.0881
CATGTCCG	0.162
ACAGCCCC	-0.00142
CCATGGTA	-0.145
TAGCCATA	-0.0729
TCCGACAA	0.122
TACGCCCA	-0.0428
ATCCCGGA	0.0365
AGCGATTA	0.00683
GACCAGTA	-0.0192
CATTCGCG	0.195
AAGATTAA	-0.134
AGTGCTGC	-0.0298

Set 3
Target: CCNE2, cyclin fold, Cln2 fusion (human)
Technique: yeast growth competition, sequencing
Matrix: yeast
Notes: strong parent motif
Baseline: not given
Direction: higher = stronger binding
Parent: INSM1 docking peptide (human); PKAIRKLHFEDEV
Substitution	normalised enrichment score
E10L	0.545
E10P	1.75
D11C	2.11
A3K	0.283
F9L	0.325
K2A	1.25
K6S	0.0435
H8Q	1.6
L7H	0.259
H8V	2.39
K6A	0.818
K6M	0.896
A3N	-0.338
D11A	1.77
D11R	1.41
H8S	1.36
R5L	0.441

Set 4
Target: RNA binding protein fox-1 homolog 2, RRM domain, GST-SBP tag (RBFOX2, Homo sapiens, UniProt O43251-10, residues 100-194)
Technique: RNA Bind-n-Seq
Form: RNA
Matrix: in vitro
Tested at: 365 nM
Notes: natural RNA segment, single round, ends assumed
Baseline: no-protein control
Direction: higher = stronger binding
Target sequence (chain): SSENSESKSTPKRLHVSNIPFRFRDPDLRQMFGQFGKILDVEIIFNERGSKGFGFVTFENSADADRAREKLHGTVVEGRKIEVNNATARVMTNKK
Sequence	RBNS enrichment (R)
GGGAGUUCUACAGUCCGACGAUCGCUGGAUGAAGCUGCCUGGCCAGCGUGGAGAUGUCCAUGGCCGGCACCGCUGGGACGGAUUCAGUGCCAGGCUGGGCGCAAGGCCCCUUACCAGUGGGCUGCUGCUCUGUUGGAAUUCUCGGGUGCCAA	0.305
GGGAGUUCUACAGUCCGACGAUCUUGUCCAAAGUUUAUUUAUUUAUUUAUUACCCUAAGAAUGCUUUGCCAUAACCACAUUUAAUGGGAAAAACGGCAGUAUCACAGAUGUAAAUUAACUCACCAGAUUUACUUGGAAUUCUCGGGUGCCAA	0.579
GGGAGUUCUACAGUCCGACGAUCGUGUGAAGUGGCCUGGGGUUGUUCCAUAAUGAAGACUCAAGAAGACUGUUUCCCCACCACAGAUGUCCUGAGAUUCAGUUAAAACGAAACAUGCUGCAUCUCCAGAGAUGUGGAAUUCUCGGGUGCCAA	0.407
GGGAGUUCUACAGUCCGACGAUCCAGGCUCUAGAGAGAGGGAGAAACAAGUGGACCUCGUCCCAUCUUCACUCUUCACUUGAGUUGGCUGUGUUCGGGGGAGCAGAGAGAGCCAGACAGCCCCAAGCUUCUGAUGGAAUUCUCGGGUGCCAA	0.312
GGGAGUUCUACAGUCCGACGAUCUGUCUGACACACAAAUGGUCUUUUCAGCCACAGUCUUAUCAAGUAUCCUAUAUGUAUUCCUUUCUAAACUGCUACUCAUGAAUGAGGAAAGUCUGAUGCUAAGAUACUGCUGGAAUUCUCGGGUGCCAA	1.13
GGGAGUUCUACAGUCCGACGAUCUUUGGUAGACAUGUGCUUUGACAUAGCGUGAGCAGCACAUUACUAAAGCAAUUACAUGCAUGUUGCAUUUUUUUCAUCUGUUGUACAUAGUUGUAUUUUUAUCUAAUGCCUGGAAUUCUCGGGUGCCAA	2.15
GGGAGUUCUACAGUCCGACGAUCCAAGUGUGAGCUUUCUGAGCAAGGGGAUUUUUUUGCUUCAGAGAAGUAAGUGUCUGUCCGUUUUCAUUCAGGGGAAAACUUGGUGUGAGCUUUGUCUGUCUGUGACCUCCUGGAAUUCUCGGGUGCCAA	0.465
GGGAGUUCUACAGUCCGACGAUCAAUAUACCAAAAAUGUUAUUGUAAUUUUAAUGAGCAUGUAAAGAGUGUAUCAAAAAUUGAUGGGAUAUUAGUGUUAGGUUUUGCUUAAAUGAAAAUUAAUAAAUUCAAAAUGGAAUUCUCGGGUGCCAA	5.08
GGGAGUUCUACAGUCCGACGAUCACCAUCCGCUGCAUGGUCACAGUAGAGCCCCCGUGACUCGCCUGUCUUUGGGUCACCUGCAUUCCAUAGCAUUGUGCUUGUACUUGUGCUCACACGGUUACCUAGGGUAGUGGAAUUCUCGGGUGCCAA	16.1
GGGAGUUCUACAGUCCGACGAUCCAUAGUUCCUUAUACACAGACACCUGCAUCAUCGAAGGUCUUUUUUUCCUAAAAAAAAAAAAUGGGAUUUUAGUUCUUAUUCUGUGAUAACUAUCCUCCUCAUAUAAUACUGGAAUUCUCGGGUGCCAA	0.713
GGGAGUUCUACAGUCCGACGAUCAAACCCCAUCAAGGACCGAGUAUGUGUCUGGUUCCUUGGGUGGGACGAUUCCUGACCACACUGUCCAGCUCUUGCUCUCAUUAAAUGCUCUGUCUCCCGCGGAAAGCUCCUGGAAUUCUCGGGUGCCAA	1.58
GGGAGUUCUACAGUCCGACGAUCGUGGAGCAGGGUGGGGCGGGGCUACAGGUUCUGUGUGCACCUGUCACCUCCACUAACGCUGUCUCAGUGUUUUCUCUCUCUCUCUCGAGCUCGUAGUCCAGCGCCUGACUUGGAAUUCUCGGGUGCCAA	0.466

Set 5
Target: RING finger protein unkempt homolog, zinc fingers 1-6, GST-SBP tag (UNK, Homo sapiens, UniProt Q9C0B0, residues 30-357)
Chain of UniProt Q9C0B0 (30-357, looked up): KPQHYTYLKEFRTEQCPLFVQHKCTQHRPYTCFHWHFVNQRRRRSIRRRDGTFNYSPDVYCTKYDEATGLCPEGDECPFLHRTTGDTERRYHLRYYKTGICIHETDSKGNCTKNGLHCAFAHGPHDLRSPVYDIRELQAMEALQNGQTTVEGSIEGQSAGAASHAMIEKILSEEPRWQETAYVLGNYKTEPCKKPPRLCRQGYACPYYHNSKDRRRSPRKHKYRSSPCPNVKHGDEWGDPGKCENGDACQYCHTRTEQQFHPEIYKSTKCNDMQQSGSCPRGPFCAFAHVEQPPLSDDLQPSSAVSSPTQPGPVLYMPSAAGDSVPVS
Technique: RNA Bind-n-Seq
Form: RNA
Matrix: in vitro
Tested at: not given
Notes: RNA with constant flanks, ends assumed
Baseline: input RNA pool
Direction: higher = stronger binding
Sequence	bound/input enrichment [ratio]
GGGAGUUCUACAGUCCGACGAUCACCUCCAGGGUGUACUCCAGAGACAGGACUCUCAAACCACGCGGAGUGUCCUUUUACCUGGACCGGACUCUGUGGCUGGCCAAGUCCACCUCCUCAUCCUUUGCAUCAUUUAUAGUUCAACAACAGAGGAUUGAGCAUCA	0.281
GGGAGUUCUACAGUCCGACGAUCUUAAUGUUCUUAAUAAAGUGUUCUUGGAGUUGAACCUAGCAGCGGAUGGCUUUCUUCCGCUCCGCCCAGUUUCCAGGGAAGCGUUGUUUCUCCAGGCUGUAAAAUGGCAGACUCUCCUGGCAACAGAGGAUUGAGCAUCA	0.278
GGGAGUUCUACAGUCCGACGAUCAUCAUUGAAGCAUUCUAUGGAGGCUCCCAUAAACAGCUGGUGGAUCUUCUUCAAGAAGAGUCCGGAGACUGUGUCGUUUAUACCCUUCCUGCAAAGAAAUGGCAUUGGAGAGCCCGGACACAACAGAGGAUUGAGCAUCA	0.127
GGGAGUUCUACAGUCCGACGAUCUAUGGUGGGGUUGGUAAUUCAUCGGUUUCUGGUCAUGGCAUUCUCCCAAGCUAUCAGGAACCCGCCGAAGAUCGUUUCAGGAAACCUCAUGCUUUUGCUGUACCUGGACAGUCAUAUCAGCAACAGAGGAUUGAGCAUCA	0.367
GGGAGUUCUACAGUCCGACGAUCCUCAAUACCAUUCCAUUGUUUGUGCAGUUGCUUUAUUCUCCCAUUGAAAAUAUCCAAAGAGCCGCUGCAGGGGUCCUCUGUGAACUUGCUCAGGACAAGGAGGCUGCAGAGGCCAUUGAACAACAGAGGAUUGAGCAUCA	0.52
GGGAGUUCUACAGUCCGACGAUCGCAGAAGGAACUUUGGGGUGCAGCCAGGACCCGGUAGGCCUGAGCCUCAACUCUUCAGAAAACCGUGUUUUUAAUAUUCCUCUUCAGAAAAUAGUGUUUUUAAUAUUCCGAGCUAGAGCUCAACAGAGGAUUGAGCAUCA	10.2
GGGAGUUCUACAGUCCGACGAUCUUCGGGAAAAUAACCAGUUAAACCAGCUACUCAAGGCUGCUCACCAUACGGCUCUAACAGAUCCGGGGCUAAAACGAUUACUGACUUUCCUUGAGUAGUUUUUAUCUGAAAUCAAUUAAACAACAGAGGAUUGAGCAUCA	0.444
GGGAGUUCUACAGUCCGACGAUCUUAAUGUUUUCGAACUGCUUUGAAUACAACCCUCGUAACACAAGUGAAGCAAAAGCUGGAACCCGGCUUCAAGCAUUUUUUCAUAUUCAGGCUCAAAAGCUUGGACUCCACGUCACACCCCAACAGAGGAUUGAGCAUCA	0.201
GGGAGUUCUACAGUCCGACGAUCAUCAUACCAUCAAAGGAUAAGAAUAUUUUGCCAAAGGUUUUCCAUUAUUAUGGCCCUGCUUCCGAAUUUGUGCAGAUGAUAAAAUUAUCAGAUCUACCCUCCUGCUAUAUGUCGGAUAUUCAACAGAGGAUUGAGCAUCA	0.245
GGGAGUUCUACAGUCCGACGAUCCACUUUGGAGCCACCGACCUGGAUGUGGCCAACUUCUACGUGUCACAGCUGCAGACUCCCACCGGUGUGCAAGCAGAGGCGCUGCUCCGAUGUAGUGACAUUAUUUCAUAUACCUUCAAGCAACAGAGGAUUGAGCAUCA	0.233
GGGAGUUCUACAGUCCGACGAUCCUCAGCCCAGGGCCCCAAAUCAACGUGCUGGAAGAUCCAGACUACCUAGAUCUCACACAAACCGAAGCAAGCAAACCUCACAGUACCCAAUUUUUGCCACCAGUUGAGAUGAUUGGUCCUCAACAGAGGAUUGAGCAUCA	0.2

Some of these lines once more (set 3):
Substitution	normalised enrichment score
F9L	0.325
K2A	1.25
K6S	0.0435
H8Q	1.6
L7H	0.259
H8V	2.39
K6A	0.818
